# Assay results from different studies.
# Numbered parts are unrelated; each lists some results of a single study.

# Set 1
# Target: Prothrombin, mature alpha-thrombin (F2, Homo sapiens, UniProt P00734)
# Method: aptamer microarray, sandwich
# Form: DNA with 2'F-ANA
# Medium: in vitro
# Concentration: 200 nM
# Notes: whole 15-mer aptamer, many near background
# With: Cy3 exosite-II aptamer, 400 nM
# Direction: higher = stronger binding
# Strand: GGTTGGTGTGGTTGG
Modification,mean fluorescence intensity
2'F-ANA at 2 9 11 14,144 a.u.
2'F-ANA at 3 4 8 10 11 13 14 15,195 a.u.
2'F-ANA at 1 2 4 6 7 10 11 13 14,47 a.u.
2'F-ANA at 1 4 6 8 10 14,45.6 a.u.
2'F-ANA at 3 5 8 10 12 14 15,52 a.u.
2'F-ANA at 1 3 4 6 8 9 13,139 a.u.
2'F-ANA at 1 2 3 5 7 8 9 11 12 13 14,52.8 a.u.
2'F-ANA at 2 3 4 7 8 9 10 13,234 a.u.
2'F-ANA at 1 2 3 7 9 10 12 13,84.9 a.u.
2'F-ANA at 1 2 7 8 9 10 11 13,58.3 a.u.
2'F-ANA at 5 7 11 12,144 a.u.
2'F-ANA at 3 6 7 9 10 11 12 13 15,407 a.u.
2'F-ANA at 2 3 9 12 14 15,491 a.u.
2'F-ANA at 1 2 7 8 9 11 15,152 a.u.
2'F-ANA at 5 7 8 11 14 15,47.2 a.u.
2'F-ANA at 2 4 6 8 9 10 12 14 15,79.4 a.u.
2'F-ANA at 2 5 6 7 8 10 11 12,54.7 a.u.
2'F-ANA at 2 3 4 6 7 14,299 a.u.
2'F-ANA at 1 2 4 6 8 9 14 15,52.3 a.u.
2'F-ANA at 5 7 9 13 14 15,54.3 a.u.
2'F-ANA at 3 4 6 8 9 10 12,287 a.u.
2'F-ANA at 1 7 8 9 10 11 12 14 15,50.3 a.u.
2'F-ANA at 1 2 4 5 6 7 8 11 14 15,48 a.u.
2'F-ANA at 2 3 5 6 9,100 a.u.

# Set 2
# Target: RING finger protein unkempt homolog, zinc fingers 1-6, GST-SBP tag (UNK, Homo sapiens, UniProt Q9C0B0, residues 30-357)
# Method: RNA Bind-n-Seq
# Form: RNA
# Medium: in vitro
# Concentration: not given
# Notes: RNA with constant flanks, human and mouse sites, ends assumed
# Relative to: input RNA pool
# Direction: higher = stronger binding
# Target sequence (chain): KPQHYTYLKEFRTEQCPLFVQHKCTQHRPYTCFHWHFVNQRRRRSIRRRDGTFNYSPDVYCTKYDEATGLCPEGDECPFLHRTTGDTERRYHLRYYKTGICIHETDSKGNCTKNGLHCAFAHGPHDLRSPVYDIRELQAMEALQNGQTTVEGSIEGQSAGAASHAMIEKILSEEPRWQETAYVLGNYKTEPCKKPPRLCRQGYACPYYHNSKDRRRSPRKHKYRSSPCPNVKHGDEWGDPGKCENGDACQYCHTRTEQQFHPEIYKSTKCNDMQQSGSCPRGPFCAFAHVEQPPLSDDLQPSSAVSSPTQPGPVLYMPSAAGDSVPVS
Strand,bound/input enrichment [ratio]
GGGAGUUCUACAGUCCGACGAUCUCUGCCAUUAAAGGACUCAAACCUAAUGCAAUUUACCUUUUCCUUGUGAGGGCAGCUAAUGCAUAUGGAAUUAGUGAUCCAAGCCAAAUAUCAGAUCCAGUGAAAACACAAGAUGUCCUACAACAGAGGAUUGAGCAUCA,0.181
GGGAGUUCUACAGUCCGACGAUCAAGAAAGAAAUGCAGCCUACACACCCAAUUCGUCUUGGUCUGGCACUAAAUUUCUCAGUCUUUUACUAUGAGAUUCUAAACUCUCCUGAAAAGGCCUGUAGCCUGGCAAAAACGGCAUUUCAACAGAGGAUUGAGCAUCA,0.205
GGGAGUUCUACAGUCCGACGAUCAGGAAACAGAUCAAUAAUAUAUUUUAUAGGUUUAUCUAUGAGACAGAGCAUCACAAUGGCAUAGCGGAGUUACUGGAGAUCCUGGGAAGUAUAAUUAAUGGAUUUGCCUUACCACUGAAGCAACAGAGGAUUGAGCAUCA,1.22
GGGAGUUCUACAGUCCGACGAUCUUAUUAUCUGUGCAGCUCACAGUUUUUUUUUUGUAUACAACUCACAGUUCUCAAAUUUUCGUUACCCAUGGGCUUCUGUUGUCCCAUGUUCUCUCCAGUUAAGAUCUAAUUUAAAAUUCACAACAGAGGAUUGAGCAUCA,1.28
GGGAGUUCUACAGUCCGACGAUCAAAGAAAGAAAACCCUCUGUGCACGUUGUCAUGAACUUGCCAGCAAAAGCUAUAGAGUUUCUUAGUGCUUUCAAGUGGCUUUUAGAUGGGCAGCCAUGCAGCAGUGAGUUCCUUCCCAUACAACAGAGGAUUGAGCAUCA,0.231
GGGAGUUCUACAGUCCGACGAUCGUGCAACAAAAGCCGACGCAGAGGGAAGGAGCAGUCGUCCCCUUGCUUUAUUUGUGUCUUUUGCAGACAUCUUCACAGUGAUGAACGCCUCAGGGAAGAUGUACAUAUCUCUUGUAUAUUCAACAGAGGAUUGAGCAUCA,0.0762
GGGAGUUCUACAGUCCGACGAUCGAAAAACUCACAAUCUCAGAAGAGACUCUGGCCAAUAAUACUUGGUCUUUAAUGUUAAAAGAAGUUCUUUCUUCAAUCUUGAAGGUUCCUGAAGGAUUUUUUUCUGGACUCAUACUCCUUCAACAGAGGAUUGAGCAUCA,0.122
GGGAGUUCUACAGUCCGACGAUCUAAACCAUGUCCCCAGGAAAUUUGAAAGGAAGCAGGUGCUGAAUGGAAUUUUUUUCCUUUUCCAUGAGCUGUGUUAAUUCUAUCUCCAGUAGGCCUAAUGCUUGAAUAAGCAAGAUGUCUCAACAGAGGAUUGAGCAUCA,0.636

# Set 3
# Target: Histone acetyltransferase KAT6A, winged helix 2, GST fusion (KAT6A, Homo sapiens, UniProt Q92794, residues 85-181)
# Method: protein binding microarray
# Form: double-stranded DNA, one strand shown
# Medium: in vitro
# Concentration: not given
# Notes: 8-mer, flanks averaged, mean of 2 arrays, mostly near background
# Relative to: not given
# Direction: higher = stronger binding
# Residues (chain): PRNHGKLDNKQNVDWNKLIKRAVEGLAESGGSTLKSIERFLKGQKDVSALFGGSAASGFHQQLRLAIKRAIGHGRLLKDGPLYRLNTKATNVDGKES
Strand,E-score
AACGTGCA,-0.228
AATGGCTA,-0.167
AACTTGGC,-0.073
AGCGCCGG,0.19
ACATTAGC,-0.00456
TATAGTGA,-0.107
ATAAGTTA,0.0402
ACGCTGGC,0.0495
ATATGTTC,-0.00384
GCAAGTAC,-0.131
AGTAACAA,-0.0225
CTTCGCAC,-0.0375
GGAGCTAA,0.104
AGGTAATG,-0.082
ACGAATCT,-0.0392
AGTAGCAC,-0.0372
CCCGCGAA,0.144
ACACCCAA,0.0178
AAGTCATC,-0.089
AATAAGAC,-0.143
ACCGCTCC,0.124
AGAATGGC,0.00229
CTTATGGC,0.055
AGCATTAT,0.066
AGTACCCG,0.0615

# Set 4
# Target: RNA binding protein fox-1 homolog 2, RRM domain, GST-SBP tag (RBFOX2, Homo sapiens, UniProt O43251-10, residues 100-194)
# Method: RNA Bind-n-Seq
# Form: RNA
# Medium: in vitro
# Concentration: 365 nM
# Notes: natural RNA segment, single round, ends assumed
# Relative to: no-protein control
# Direction: higher = stronger binding
Strand,RBNS enrichment (R)
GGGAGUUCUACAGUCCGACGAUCAAAAGAUUGCUUGCUACGACUGCAUCAGCGUCUGCACCUGCGUAAGGAGGAAGCUCACUCACUCAAGAGCACCUCCAUGUACCGCGUCACACUGGAAGGAGGCUAAGUCUUGGAAUUCUCGGGUGCCAA,0.429
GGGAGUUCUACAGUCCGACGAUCUCAUUCAGAGGACUCAAGUACUAGUGCUAGGUCUCUUUCCUUCCACUCUCUCUCUCUCUCUCUCUCUCUCUCUCUCUCUCUCUCUCUCUCCUAAGUACUUAUUCAUGCCUUGGAAUUCUCGGGUGCCAA,0.796
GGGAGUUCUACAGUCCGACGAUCGGUUGGGCCCAGGUGCUGCUCAGCCAGGAAACGAGAGCAAACACUCCAGGGCCUUUGCAAGCCCAUCGCCCUCCUCACUGGAGACACCCAGACCUGCCUUCCUCCACCAAUGGAAUUCUCGGGUGCCAA,0.367
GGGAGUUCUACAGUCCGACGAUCAUUAGGAGAUUGACAGAUGAUGUUGUCUGACAGGUGGUUGGCUGUCCCAGAGAGAGAUAGAGACUCCCCAGCAUGUAGGGGGCAGAGUCACAAGAGUGCUGGCCUGGGAGUGGAAUUCUCGGGUGCCAA,27
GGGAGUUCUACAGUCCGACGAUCUUGACCAGAUGUUCCAAAAUAUCUGCAUCCACCUGGAGAUGCAGCUAAGUGGGUCCUUAUGUACACACCACGUUCACACACACACAGAGGGACCACGUGUGCACGCAUGAUGGAAUUCUCGGGUGCCAA,2.23
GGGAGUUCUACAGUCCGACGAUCUCUUAGGCCCUCAGGUCCCCAUAGCACUGGGAGGGGGCGCUGGGGACCAUGUGCCCAGGGACUGCAGCCAGGUUCACUCUGCUGGGAGAGCUGGCUGGGGGGAAGGGCUUUGGAAUUCUCGGGUGCCAA,0.772
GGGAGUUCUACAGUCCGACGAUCAGGCUAUGUACCUCGAAGGGAGGGCCUGGGGGACAAUGUUACCGAGAGGAGAAUGUGAGCACAUUUGACUGACACGGCCUGGAACCCAGUGCAUCUUUUCACGGCACUGCUGGAAUUCUCGGGUGCCAA,4.38
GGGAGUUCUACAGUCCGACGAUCAAGCAUGCUUCUCCUGAAAUUUAACUACAUUAGUAGUUGACAUUUGUAUACAUAUAUCCUAAUACAAGAGUAGGAUAAGGUGGAAAUGUAAUGGCCUGAGGGAUGGUGAAUGGAAUUCUCGGGUGCCAA,7.94
